{"data": "Results from different studies", "note": "Each line is one published result; not all experiments were run side by side. pIC50: −log10 of the molar value."}
{"SMILES": "COC1CN([C@H]2CC[C@H]([C@@]3(C)Oc4c(Cl)cc(C(=O)NCc5c(SC)cc(C)[nH]c5=O)c(C)c4O3)CC2)C1", "assay": "RNA-seq, measured: mouse F5 homolog", "test system": "mouse, HT-1376 xenograft, whole blood", "setting": "dose not given, PRC2 target gene", "how to read": "relative to: vehicle", "quantity": "log2 fold change", "result": 0.303}
{"SMILES": "CCN(CC)CC(=O)Nc1cccc(-n2cc(-c3ccc4ccc(-c5cn(-c6cccc(NC(=O)CN(CC)CC)c6)nn5)cc4c3)nn2)c1", "target or system": "RCC4", "assay": "PCR angiogenesis array, measured: CDH5", "setting": "5 x IC50, 4 h, normoxia", "how to read": "relative to: untreated", "quantity": "fold regulation", "result": 1.04}
{"SMILES": "C=C(NC(=O)c1csc(-c2nc3c(cc2O)-c2nc(cs2)C(=O)NC(C(C)O)C(=O)NC(=C(C)OC)c2nc(cs2)C(=O)NC2c4nc(cs4)C(=O)NC(COC(=O)c4c5c6c(cccc6n4O)COC(=O)C(OC4CC(C)(O)C(N(C)C)C(C)O4)C2OC5)c2nc-3cs2)n1)C(N)=O (centres unmarked)", "target or system": "Staphylococcus aureus", "assay": "microbial growth", "test system": "MSSA", "setting": "clinical isolate", "quantity": "MIC90", "result": "0.0156 µg/mL"}
{"SMILES": "Cc1ncsc1-c1ccc(C(C)NC(=O)C2CC(O)CN2C(=O)C(NC(=O)CCCCCCCCCCN2CCCC(Nc3ncc(Cl)c(Nc4ccccc4S(=O)(=O)C(C)C)n3)C2)C(C)(C)C)cc1 (centres unmarked)", "target or system": "22Rv1", "assay": "RNA-seq, measured: SLC7A5 mRNA", "setting": "concentration not given", "how to read": "relative to: DMSO", "quantity": "log2 fold change", "result": -1.51}
{"SMILES": "CNS(=O)(=O)Nc1nccc(Cc2c(C)c3ccc(Oc4ncccc4F)cc3oc2=O)c1F", "target or system": "TOV21G", "assay": "cell viability", "setting": "7 days", "quantity": "pIC50", "result": "< 6.00"}
{"SMILES": "C=CC(=O)Nc1cccc(Cn2ncc3cnc(Nc4cnn(CCOC)c4)nc32)c1", "target or system": "MKNK2 human", "assay": "binding, KINOMEscan", "setting": "100 nM", "how to read": "lower = stronger binding", "quantity": "percent of control", "result": "22%"}
{"SMILES": "CN1CCCNC(=O)c2cccc(c2)C(=O)NCCCN(C)CCCNc2cccc3c2C(=O)c2cccc(c2C3=O)NCCC1", "target or system": "SAS", "assay": "RNA-Seq, measured: RASL10B mRNA", "setting": "1 µM, 6 h", "how to read": "relative to: untreated cells", "quantity": "log2 fold change", "result": 1.26}
{"SMILES": "Nc1ncc(-c2cc(-c3cnn(CC(F)(F)F)c3)ncc2F)nc1C(=O)NC1CNCC(F)C1 (centres unmarked)", "target or system": "TAOK1", "assay": "KINOMEscan", "setting": "1 µM", "how to read": "relative to: DMSO control", "quantity": "remaining binding", "result": "52%"}
